Measured values collected from several papers.
Lines come from different studies, so protocols differ.
Target: Ephrin type-B receptor 3 (EPHB3, Homo sapiens, UniProt P54753)
Sequence (P54753 34-998, as in one of the studies): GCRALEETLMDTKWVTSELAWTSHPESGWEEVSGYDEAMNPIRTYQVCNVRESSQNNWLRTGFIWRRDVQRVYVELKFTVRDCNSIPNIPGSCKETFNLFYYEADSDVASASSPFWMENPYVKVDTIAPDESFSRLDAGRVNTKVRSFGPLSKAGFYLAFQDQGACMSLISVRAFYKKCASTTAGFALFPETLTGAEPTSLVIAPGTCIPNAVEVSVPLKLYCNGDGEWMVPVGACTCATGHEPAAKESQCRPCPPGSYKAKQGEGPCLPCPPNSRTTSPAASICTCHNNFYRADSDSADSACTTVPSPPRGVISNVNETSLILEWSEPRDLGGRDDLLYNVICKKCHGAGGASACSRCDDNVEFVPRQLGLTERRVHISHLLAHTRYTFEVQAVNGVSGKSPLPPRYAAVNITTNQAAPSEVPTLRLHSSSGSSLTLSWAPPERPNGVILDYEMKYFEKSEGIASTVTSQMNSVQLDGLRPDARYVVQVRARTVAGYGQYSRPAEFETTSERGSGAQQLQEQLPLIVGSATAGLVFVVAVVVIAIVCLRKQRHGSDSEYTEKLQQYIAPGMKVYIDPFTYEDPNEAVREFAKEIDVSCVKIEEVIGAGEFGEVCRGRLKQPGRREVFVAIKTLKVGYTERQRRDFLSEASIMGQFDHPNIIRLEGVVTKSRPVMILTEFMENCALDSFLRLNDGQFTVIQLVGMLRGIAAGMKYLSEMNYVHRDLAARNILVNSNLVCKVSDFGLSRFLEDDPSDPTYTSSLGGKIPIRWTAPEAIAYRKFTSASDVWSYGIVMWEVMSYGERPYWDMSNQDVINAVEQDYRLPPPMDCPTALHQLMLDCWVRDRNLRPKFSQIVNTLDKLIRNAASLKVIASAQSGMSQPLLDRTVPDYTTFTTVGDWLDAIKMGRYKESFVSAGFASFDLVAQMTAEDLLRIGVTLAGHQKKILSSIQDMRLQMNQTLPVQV

C=CC(=O)N1CCC(COCC(=O)N2CCN(c3nc(-c4cnc(N)nc4C(F)F)nc(N4CCOC[C@@H]4C)n3)CC2)CC1 — remaining binding (KINOMEscan; 1 µM): 100%
COc1cc(F)ccc1-c1ncnc(Nc2cccc(C[S@](C)(=N)=O)c2)n1 — remaining activity (kinase activity; 10 µM, together with: 10 µM ATP): 102%
Cc1cc(Nc2cc(N3CCN(C)CC3)nc(Sc3ccc(NC(=O)C4CC4)cc3)n2)[nH]n1 — remaining activity (kinase activity, KinaseProfiler; 0.03 µM, species human; relative to: control): 104%
C=CC(=O)N1CCC[C@@H](n2nc(-c3ccc(Oc4ccccc4)cc3)c3c(N)ncnc32)C1 — remaining activity (10 µM): 114%
O=C(NC1CCC1)c1ccc2nc(-c3cccc(NS(=O)(=O)NCCN4CCCCC4)c3)cn2c1 — remaining activity (enzyme activity; 10 µM): 81%
O=C1NC(=O)/C(=C/c2ccc(-c3ccc(F)cc3O)o2)S1 — remaining activity (enzyme activity; 10 µM): 52%
CNc1ncc2c(/C=C/C(=O)N3CCC(OC)CC3)nn(Cc3cccc(C(F)(F)F)c3)c2n1 — remaining activity (kinase activity, inhibitor; 1 µM; relative to: untreated control): 92%
COc1cc(-c2cncc3c2CN(C)Cc2cc(N4CCNCC4)ccc2-3)cc(OC)c1OC — remaining activity (kinase activity; 1 µM, human enzyme, together with: ATP 10 µM; relative to: DMSO control): 93%

Excerpt of the above:
C=CC(=O)N1CCC(COCC(=O)N2CCN(c3nc(-c4cnc(N)nc4C(F)F)nc(N4CCOC[C@@H]4C)n3)CC2)CC1 — remaining binding (KINOMEscan; 1 µM): 100%
